Assay results gathered from unrelated publications.
A part holds a random share of what one study measured. ± marks the error that the study gave.

Block 1
Target: Metabotropic glutamate receptor 2 (GRM2, Homo sapiens, UniProt Q14416)
Chain of UniProt Q14416 (whole entry, looked up): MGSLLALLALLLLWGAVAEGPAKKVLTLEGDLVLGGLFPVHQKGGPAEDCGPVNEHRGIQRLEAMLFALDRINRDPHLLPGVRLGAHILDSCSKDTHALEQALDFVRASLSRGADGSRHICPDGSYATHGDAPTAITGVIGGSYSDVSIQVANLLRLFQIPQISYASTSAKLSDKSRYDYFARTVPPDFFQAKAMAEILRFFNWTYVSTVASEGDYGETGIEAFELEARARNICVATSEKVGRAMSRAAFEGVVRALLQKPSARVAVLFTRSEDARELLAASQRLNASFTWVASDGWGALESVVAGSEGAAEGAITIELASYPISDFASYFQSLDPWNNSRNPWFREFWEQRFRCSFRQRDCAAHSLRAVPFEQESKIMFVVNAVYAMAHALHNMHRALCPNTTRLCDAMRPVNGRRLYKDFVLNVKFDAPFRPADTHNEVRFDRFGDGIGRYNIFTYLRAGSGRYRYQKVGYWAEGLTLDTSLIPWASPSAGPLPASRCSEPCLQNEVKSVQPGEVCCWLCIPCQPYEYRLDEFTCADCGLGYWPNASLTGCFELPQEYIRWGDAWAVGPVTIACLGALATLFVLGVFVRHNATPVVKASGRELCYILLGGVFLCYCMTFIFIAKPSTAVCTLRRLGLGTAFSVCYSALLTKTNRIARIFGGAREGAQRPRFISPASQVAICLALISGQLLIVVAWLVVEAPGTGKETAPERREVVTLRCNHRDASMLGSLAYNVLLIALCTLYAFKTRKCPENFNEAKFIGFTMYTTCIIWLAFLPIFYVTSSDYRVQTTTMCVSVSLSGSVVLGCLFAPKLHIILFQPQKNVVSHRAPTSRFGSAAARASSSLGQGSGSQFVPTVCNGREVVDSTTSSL
Read-out: GTPγS binding
Action: positive allosteric modulator
Added: EC20 glutamate
Baseline: control glutamate response
| Structure (SMILES) | Emax [%] |
| --- | --- |
| CCCCn1ccn2c(-c3ccc(N4CCNCC4)c(Cl)c3)c(C)nc2c1=O | 237 ± 81 |
| CCCCn1ccn2c(-c3ccc4c(ccn4-c4cccnc4)c3)c(C)nc2c1=O | 224 ± 41 |
| CCCCn1ccn2c(-c3ccc(NCc4ccc(OC)nc4)cc3)c(C)nc2c1=O | 244 ± 23 |
| CCCCn1ccn2c(-c3ccc(Oc4ccc(C)nc4C)c(F)c3)c(C)nc2c1=O | 248 ± 14 |
| CCCCn1ccn2c(-c3ccc(OCC4CC4)c(Cl)c3)nc(C)c2c1=O | 151 ± 8 |
| CCCCn1ccn2c(-c3ccc(Oc4ccccc4)cc3)c(C)nc2c1=O | 256 ± 7 |

Block 2
SMILES: COC(=O)c1cnn(-c2ccc(F)cc2F)c1C=NNC(=S)NC(C)(C)C
Target: G-protein coupled receptor 35 (GPR35, Homo sapiens, UniProt Q9HC97)
Chain of UniProt Q9HC97 (whole entry, looked up): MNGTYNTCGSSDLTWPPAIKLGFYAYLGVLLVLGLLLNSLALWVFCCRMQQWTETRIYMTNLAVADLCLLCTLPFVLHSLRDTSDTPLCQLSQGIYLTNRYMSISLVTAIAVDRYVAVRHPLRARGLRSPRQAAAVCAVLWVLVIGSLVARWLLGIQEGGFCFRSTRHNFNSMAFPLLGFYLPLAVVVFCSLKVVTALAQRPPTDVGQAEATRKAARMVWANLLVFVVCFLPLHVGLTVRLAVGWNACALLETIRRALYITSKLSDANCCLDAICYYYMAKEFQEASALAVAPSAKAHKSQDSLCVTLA
Read-out: dynamic mass redistribution
Action: antagonist
Cells: HT-29
| setting | IC50 [µM] |
| --- | --- |
| added: DHPG 1 mM | 1.97 ± 0.15 |
| added: 0.5 mM kynurenic acid | 4.41 ± 0.47 |
| added: rosmarinate 32 µM | 2.22 ± 0.19 |
| added: 0.5 mM dihydrocaffeic acid | 3.92 ± 0.31 |
| added: DOPAC 1 mM | 4.6 ± 0.31 |
| added: T4 1 mM | 2.07 ± 0.17 |
| added: T3 50 µM | 3.25 ± 0.21 |
| added: rT3 16 µM | 2.84 ± 0.23 |

Block 3
Read-out: DPPH scavenging
| SMILES | IC50 [µM] |
| --- | --- |
| O=C(CSc1nc2ccccc2cc1C=Nn1c(S)nnc1-c1ccccc1)NCCc1ccccc1 | 102 |
| O=C(CSc1nc2ccccc2cc1C=Nn1c(S)nnc1-c1ccccc1)Nc1ccccc1 | 107 |
| O=C(CSc1nc2ccccc2cc1C=Nn1c(S)nnc1-c1ccccc1)Nc1ccccc1Cl | 106 |

Block 4
Organism: Leishmania major
Method: annexin V/PI flow cytometry
Strain: promastigotes
Concentration: IC50
| SMILES | apoptotic cells [%] |
| --- | --- |
| Fc1ccc(C=NNC(=S)Nc2cccnc2)cc1 | 42.2 |
| CNC(=S)NN=Cc1ccc(O)c(OC)c1 | 41.5 |
| CNC(=S)NN=Cc1ccc([N+](=O)[O-])cc1 | 16.2 |
| CNC(=S)NN=Cc1ccc(OC)cc1 | 52.9 |
